Measurements collected from several papers.
Compare with care: the assays were run in different laboratories. “And” joins repeats or separate records; there may be more than shown. ± marks the error that the study gave.
HLA class I histocompatibility antigen, A alpha chain allele A*01:01: HLA class I histocompatibility antigen, A alpha chain, allele A*01:01 (Homo sapiens, UniProt P04439)
B1: mglB (Myxococcus xanthus, UniProt Q1DB03); sequence looked up; chain MGTQLVMYEEEFTKINAVCDRLTKDANAKVVFLVDKNGQLISSAGQTQNIDTTSLASLTAGNVAAMGGLAKLIGENEFPNQFHEGAKDSLYMTIVGSRVVLVVIFDNRTSLGLVRLRIKKASDELTKIFESLVKKTDSPGAGSPFAEISDDDIDNLFSE
B2: CFH domains 1108-1231 (Homo sapiens, UniProt P08603); sequence looked up; chain KCGPPPPIDNGDITSFPLSVYAPASSVEYQCQNLYQLEGNKRITCRNGQWSEPPKCLHPCVISREIMENYNIALRWRAKQKLYSRTGESVEFVCKRGYRLSSRSHTLRTTCWDGKLEYPTCAKR
B3: PUX2 1-149 (Arabidopsis thaliana, UniProt Q9ZU93); chain MDDVKDKLKGFMKKVNLSSSSGKFKGQGRVLGSSSSSSAPPVNPIQNRFNSSQAPNPTPRPKPNPNPLPEKPLSSSDQKISGSTRNPDHDPVRAPQDGFDPYGAFITSSNRSQNGYSLSMFECPICKNPFTSEEEVSVHVESCLGDTNG
B4: acpP (Escherichia coli, UniProt P0A6A8); 4-DMN-phosphopantetheine; sequence looked up; chain MSTIEERVKKIIGEQLGVKQEEVTNNASFVEDLGADSLDTVELVMALEEEFDTEIPDEEAEKITTVQAAIDYINGHQA
B5: USP3 ZnF-UBD 1-131 (Homo sapiens); chain MECPHLSSSVCIAPDSAKFPNGSPSSWCCSVCRSNKSPWVCLTCSSVHCGRYVNGHAKKHYEDAQVPLTNHKKSEKQDKVQHTVCMDCSSYSTYCYRCDDFVVNDTKLGLVQKVREHLQNLENSAFTADRH
B6: SDC4 ectodomain 19-145 (Homo sapiens, UniProt P31431); heparan sulfate chains; sequence looked up; chain ESIRETEVIDPQDLLEGRYFSGALPDDEDVVGPGQESDDFELSGSGDLDDLEDSMIGPEVVHPLVPLDNHIPERAGSGSQVPTEPKKLEENEVIPKRISPVEESEDVSNKVSMSSTVQGSNIFERTE
B7: TEPSIN M474S/E475S/V477S (Homo sapiens, UniProt Q96N21); chain MAAAPPLRDRLSFLHRLPILLKGTSDDDVPCPGYLFEEIAKISHESPGSSQCLLEYLLSRLHSSSGHGKLKVLKILLYLCSHGSSFFLLILKRNSAFIQEAAAFAGPPDPLHGNSLYQKVRAAAQDLGSTLFSDTVLPLAPSQPLGTPPATGMGSQARPHSTLQGFGYSKEHGRTAVRHQPGQAGGGWDELDSGPSSQNSSQNSDLSRVSDSGSHSGSDSHSGASREPGDLAERVEVVALSDCQQELSLVRTVTRGPRAFLSREEAQHFIKACGLLNCEAVLQLLTCHLRGTSECTQLRALCAIASLGSSDLLPQEHILLRTRPWLQELSMGSPGPVTNKATKILRHFEASCGQLSPARGTSAEPGPTAALPGPSDLLTDAVPLPGSQVFLQPLSSTPVSSRSPAPSSGMPSSPVPTPPPDASPIPAPGDPSEAEARLAESRRWRPERIPGGTDSPKRGPSSCAWSRDSLFAGSSLSACPRLVGAGAAAGESCPDAPRAPQTSSQRTAAKEPPGSEPSAFAFLNA
Chain of UniProt P54609 (whole entry, looked up): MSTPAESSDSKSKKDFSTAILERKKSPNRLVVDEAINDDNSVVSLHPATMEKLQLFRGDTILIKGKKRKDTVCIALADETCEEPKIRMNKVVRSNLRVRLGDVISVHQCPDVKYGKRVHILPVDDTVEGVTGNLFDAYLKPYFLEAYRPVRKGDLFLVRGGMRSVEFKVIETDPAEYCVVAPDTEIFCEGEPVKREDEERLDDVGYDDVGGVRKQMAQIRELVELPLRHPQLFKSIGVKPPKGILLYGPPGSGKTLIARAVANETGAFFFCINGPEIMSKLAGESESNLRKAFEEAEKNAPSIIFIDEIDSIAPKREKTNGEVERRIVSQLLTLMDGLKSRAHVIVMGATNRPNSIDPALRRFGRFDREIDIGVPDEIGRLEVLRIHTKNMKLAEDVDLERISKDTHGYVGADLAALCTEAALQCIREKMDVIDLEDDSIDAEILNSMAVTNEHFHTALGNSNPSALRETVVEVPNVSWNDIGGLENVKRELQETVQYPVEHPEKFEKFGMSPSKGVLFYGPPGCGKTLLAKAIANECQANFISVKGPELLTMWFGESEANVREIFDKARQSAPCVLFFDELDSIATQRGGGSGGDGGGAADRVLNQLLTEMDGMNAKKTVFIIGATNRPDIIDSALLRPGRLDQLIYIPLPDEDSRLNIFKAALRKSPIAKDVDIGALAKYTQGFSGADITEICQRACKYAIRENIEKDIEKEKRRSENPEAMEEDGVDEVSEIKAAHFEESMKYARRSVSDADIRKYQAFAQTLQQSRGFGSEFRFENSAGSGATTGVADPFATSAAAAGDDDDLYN
Chain of UniProt P26039 (whole entry, looked up): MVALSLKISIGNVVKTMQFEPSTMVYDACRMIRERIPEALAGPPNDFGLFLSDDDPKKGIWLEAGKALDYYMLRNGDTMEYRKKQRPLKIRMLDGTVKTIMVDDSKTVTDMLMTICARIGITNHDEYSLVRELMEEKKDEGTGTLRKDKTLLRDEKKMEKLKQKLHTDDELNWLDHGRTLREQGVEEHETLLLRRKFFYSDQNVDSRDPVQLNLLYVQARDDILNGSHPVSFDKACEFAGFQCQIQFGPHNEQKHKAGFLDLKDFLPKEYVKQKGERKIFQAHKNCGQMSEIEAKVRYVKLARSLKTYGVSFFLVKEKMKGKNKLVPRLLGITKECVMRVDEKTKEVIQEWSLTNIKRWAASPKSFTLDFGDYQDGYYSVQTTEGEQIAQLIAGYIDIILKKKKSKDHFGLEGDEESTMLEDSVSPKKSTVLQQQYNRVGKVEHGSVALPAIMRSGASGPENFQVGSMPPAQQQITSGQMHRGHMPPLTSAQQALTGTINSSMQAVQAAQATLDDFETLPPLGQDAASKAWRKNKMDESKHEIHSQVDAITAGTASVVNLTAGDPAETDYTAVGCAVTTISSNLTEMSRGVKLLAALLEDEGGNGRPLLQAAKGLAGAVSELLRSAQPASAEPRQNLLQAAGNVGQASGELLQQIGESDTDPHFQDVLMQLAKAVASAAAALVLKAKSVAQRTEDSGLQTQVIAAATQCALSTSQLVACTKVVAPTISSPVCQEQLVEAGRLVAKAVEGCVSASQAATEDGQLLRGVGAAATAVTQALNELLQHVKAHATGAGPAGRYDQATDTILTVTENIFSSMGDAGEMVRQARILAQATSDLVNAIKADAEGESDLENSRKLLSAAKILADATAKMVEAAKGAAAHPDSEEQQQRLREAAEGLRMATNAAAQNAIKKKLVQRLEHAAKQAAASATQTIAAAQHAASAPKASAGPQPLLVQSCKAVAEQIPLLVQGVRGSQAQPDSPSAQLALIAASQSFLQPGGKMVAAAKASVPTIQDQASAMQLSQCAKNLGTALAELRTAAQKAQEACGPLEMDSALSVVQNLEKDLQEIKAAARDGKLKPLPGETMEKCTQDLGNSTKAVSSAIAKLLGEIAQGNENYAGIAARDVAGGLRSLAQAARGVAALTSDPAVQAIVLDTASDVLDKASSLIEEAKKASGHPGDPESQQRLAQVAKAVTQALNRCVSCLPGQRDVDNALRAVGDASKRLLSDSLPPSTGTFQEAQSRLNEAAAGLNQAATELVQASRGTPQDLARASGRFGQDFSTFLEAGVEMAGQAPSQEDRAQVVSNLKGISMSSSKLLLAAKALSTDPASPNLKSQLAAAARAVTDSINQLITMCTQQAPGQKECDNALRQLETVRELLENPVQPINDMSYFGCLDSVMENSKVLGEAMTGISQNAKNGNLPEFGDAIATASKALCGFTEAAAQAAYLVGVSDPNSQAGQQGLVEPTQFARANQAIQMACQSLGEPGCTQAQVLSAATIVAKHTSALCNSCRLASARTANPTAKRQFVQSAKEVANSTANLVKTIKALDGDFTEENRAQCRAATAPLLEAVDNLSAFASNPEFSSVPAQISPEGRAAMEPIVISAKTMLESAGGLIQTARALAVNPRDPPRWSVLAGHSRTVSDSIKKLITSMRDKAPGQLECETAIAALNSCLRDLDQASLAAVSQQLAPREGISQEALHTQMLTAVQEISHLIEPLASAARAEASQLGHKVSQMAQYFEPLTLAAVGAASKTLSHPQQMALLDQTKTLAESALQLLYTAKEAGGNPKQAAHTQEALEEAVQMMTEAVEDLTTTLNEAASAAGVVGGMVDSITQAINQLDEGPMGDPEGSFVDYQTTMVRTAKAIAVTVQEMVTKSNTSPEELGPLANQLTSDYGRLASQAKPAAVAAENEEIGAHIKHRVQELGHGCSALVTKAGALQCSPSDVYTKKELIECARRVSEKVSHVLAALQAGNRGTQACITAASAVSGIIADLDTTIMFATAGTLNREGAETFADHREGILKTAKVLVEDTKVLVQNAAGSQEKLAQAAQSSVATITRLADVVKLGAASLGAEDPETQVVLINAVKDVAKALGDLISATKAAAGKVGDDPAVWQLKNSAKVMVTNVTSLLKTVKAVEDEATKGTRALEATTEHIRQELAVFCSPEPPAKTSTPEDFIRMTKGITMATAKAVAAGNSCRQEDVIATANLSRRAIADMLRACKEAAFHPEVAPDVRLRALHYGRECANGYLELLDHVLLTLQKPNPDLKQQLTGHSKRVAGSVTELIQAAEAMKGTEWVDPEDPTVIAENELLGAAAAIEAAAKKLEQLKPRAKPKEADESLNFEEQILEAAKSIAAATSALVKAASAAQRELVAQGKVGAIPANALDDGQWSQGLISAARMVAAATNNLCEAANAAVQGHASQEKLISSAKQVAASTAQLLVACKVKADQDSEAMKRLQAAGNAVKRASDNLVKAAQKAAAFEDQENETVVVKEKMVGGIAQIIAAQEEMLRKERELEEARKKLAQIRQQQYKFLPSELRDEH
Chain of UniProt P09038 (whole entry, looked up): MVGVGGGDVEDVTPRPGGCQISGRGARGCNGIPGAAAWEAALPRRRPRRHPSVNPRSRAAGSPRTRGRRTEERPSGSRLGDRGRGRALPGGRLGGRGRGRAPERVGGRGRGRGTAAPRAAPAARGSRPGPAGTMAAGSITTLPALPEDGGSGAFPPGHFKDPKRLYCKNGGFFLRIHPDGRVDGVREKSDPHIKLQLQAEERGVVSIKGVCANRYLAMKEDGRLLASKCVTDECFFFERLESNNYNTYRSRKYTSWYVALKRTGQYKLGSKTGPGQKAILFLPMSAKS
Chain of UniProt O75023 (whole entry, looked up): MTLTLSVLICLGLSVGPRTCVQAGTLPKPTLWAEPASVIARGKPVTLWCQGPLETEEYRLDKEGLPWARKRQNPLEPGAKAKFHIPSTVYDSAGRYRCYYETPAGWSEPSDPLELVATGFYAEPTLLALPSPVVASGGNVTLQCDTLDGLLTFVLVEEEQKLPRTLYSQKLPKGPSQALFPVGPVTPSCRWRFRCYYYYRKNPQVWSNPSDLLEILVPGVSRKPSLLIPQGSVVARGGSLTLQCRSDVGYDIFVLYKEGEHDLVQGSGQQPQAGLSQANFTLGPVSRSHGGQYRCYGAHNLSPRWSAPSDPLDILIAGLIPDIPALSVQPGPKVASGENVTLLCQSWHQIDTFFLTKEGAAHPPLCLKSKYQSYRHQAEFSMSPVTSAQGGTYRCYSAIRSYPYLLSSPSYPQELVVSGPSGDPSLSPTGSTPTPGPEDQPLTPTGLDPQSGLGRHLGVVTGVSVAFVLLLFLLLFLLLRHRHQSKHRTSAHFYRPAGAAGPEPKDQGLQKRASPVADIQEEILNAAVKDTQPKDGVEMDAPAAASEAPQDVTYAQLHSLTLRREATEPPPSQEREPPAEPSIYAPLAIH
Chain of UniProt Q1DB04 (whole entry, looked up): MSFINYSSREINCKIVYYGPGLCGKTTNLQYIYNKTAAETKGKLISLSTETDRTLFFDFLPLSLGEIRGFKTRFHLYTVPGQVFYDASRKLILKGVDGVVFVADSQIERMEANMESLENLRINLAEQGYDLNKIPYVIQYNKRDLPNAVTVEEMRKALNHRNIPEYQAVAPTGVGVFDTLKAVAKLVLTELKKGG
Chain of UniProt P0A6Q3 (whole entry, looked up): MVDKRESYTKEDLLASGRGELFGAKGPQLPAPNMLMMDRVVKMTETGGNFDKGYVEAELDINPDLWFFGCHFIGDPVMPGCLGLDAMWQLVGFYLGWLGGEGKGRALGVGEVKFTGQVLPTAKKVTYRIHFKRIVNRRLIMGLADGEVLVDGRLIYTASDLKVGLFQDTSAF
Chain of UniProt Q9QY76 (whole entry, unmodified, looked up): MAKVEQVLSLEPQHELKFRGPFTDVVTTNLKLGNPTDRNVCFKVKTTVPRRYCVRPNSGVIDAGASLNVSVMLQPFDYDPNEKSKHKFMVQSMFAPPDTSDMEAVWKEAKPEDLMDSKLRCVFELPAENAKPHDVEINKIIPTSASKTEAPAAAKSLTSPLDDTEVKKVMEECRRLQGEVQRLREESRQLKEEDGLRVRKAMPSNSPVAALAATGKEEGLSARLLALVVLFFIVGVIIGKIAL

`KLLMIIHDRREFAKFEKEKMNAKWDTQENPIYKSAINNFKNPNYGRKAGL (ITGB1 752-801 P786A (Homo sapiens, UniProt P05556-5); sequence looked up)` gave a Kd of 269 µM (Tln1 309-405 (Mus musculus, UniProt P26039); NMR titration).
`B1 (mglB)` gave a Kd of 0.751 ± 0.111 µM (mglA (Myxococcus xanthus, UniProt Q1DB04); ITC; 25 °C, added: GDP 100 µM).
`B2 (CFH domains 1108-1231)` gave a Kd of 4.4 ± 0.2 µM (C3 C3dg 955-1303 (Homo sapiens, UniProt P01024); SPR).
With `B3 (PUX2 1-149)` the Kd was 59.2 ± 27.4 µM (CDC48A 1-463 (Arabidopsis thaliana, UniProt P54609); ITC; 25 °C).
`LTSTVQLIMQL` has a binding score of 1.4% (HLA class I histocompatibility antigen, A alpha chain allele A*01:01; conformational ELISA; peptide; concentration not given; baseline: positive control peptide, direction not given).
`B4 (acpP)` has a Kd of 2.85 µM (fabA (Escherichia coli, UniProt P0A6Q3); fluorescence titration).
The Kd of `WDCLDNRIGRRQCVKL (DR5-targeting peptide; cyclic, disulfide, Cy5 label, PEG2 linker)` is reported as 1.62 µM (TNFRSF10B (Homo sapiens, UniProt O14763); flow cytometry; peptide, COLO205).
`B5 (USP3 ZnF-UBD 1-131)` gave a Kd of > 1000 µM (UBB fragment (Homo sapiens); SPR).
The Kd of `ENSSEEEFFDAHEGFSDSDE (Pitpnm1 343-362 (Mus musculus, UniProt O35954); sequence looked up)` is reported as 0.87 µM (Vapb 1-125 K43L/K45L (Mus musculus, UniProt Q9QY76); ITC).
`B6 (SDC4 ectodomain 19-145)` gave a Kd of 0.0027 µM (FGF2, 125I label (UniProt P09038); radioligand binding; cell-free).
`EPHA7 soluble recombinant (Homo sapiens)` gave a Kd of 0.564 µM (LILRB5 24-458 (Homo sapiens, UniProt O75023); BLI).
`SEKHFRETEV` has a binding intensity of 0.649 (human MAGI1-2/6 PDZ construct (MBP fusion); automated holdup; peptide, crude extract; concentration not given, uncorrected, unit not given; baseline: biotin control resin, higher = stronger binding).
`B7 (TEPSIN M474S/E475S/V477S)` gave a Kd of 5.89 µM and 7.66 µM and 6.2 µM and 5.04 µM (MAP1LC3B fragment (Homo sapiens); BLI).
`GSGAGRETEV` gave a binding intensity of 0.0853 (human MAGI1-2/6 PDZ construct (MBP fusion); automated holdup; peptide, purified PDZ protein; concentration not given, unit not given; baseline: biotin control resin, higher = stronger binding).
`ITQLMPFGS` has a binding score of 0.3% (HLA class I histocompatibility antigen, A alpha chain allele A*01:01; conformational ELISA; peptide; concentration not given; baseline: positive control peptide, direction not given).

For quick reference, copied from above:
`B5 (USP3 ZnF-UBD 1-131)` gave a Kd of > 1000 µM (UBB fragment (Homo sapiens); SPR).
The Kd of `ENSSEEEFFDAHEGFSDSDE (Pitpnm1 343-362 (Mus musculus, UniProt O35954); sequence looked up)` is reported as 0.87 µM (Vapb 1-125 K43L/K45L (Mus musculus, UniProt Q9QY76); ITC).
